# Experimental data from different studies.
# Each numbered part is a random draw from the data of one study; scales do not carry over between parts.
# UniProt Q9HC98, sequence (whole entry, looked up): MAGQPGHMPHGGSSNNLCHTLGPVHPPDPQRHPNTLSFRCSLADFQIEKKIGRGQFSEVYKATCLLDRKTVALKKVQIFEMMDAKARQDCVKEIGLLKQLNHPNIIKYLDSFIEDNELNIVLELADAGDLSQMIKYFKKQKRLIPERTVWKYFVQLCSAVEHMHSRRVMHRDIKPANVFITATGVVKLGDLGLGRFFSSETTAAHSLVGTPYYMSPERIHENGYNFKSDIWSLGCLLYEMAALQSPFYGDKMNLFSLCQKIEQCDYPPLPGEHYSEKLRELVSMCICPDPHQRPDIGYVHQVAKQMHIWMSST
# UniProt P49137, sequence (whole entry, looked up): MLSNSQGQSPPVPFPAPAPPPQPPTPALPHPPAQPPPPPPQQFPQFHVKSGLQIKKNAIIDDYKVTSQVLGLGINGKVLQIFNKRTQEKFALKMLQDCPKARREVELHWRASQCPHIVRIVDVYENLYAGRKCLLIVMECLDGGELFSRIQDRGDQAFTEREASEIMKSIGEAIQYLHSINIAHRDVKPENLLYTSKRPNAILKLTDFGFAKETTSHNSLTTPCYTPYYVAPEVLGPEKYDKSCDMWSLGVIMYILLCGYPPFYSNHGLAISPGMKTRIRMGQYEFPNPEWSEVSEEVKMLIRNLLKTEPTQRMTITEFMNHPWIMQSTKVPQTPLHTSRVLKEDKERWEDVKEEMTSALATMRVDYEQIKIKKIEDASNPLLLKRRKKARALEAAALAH
# UniProt P42685, sequence (whole entry, looked up): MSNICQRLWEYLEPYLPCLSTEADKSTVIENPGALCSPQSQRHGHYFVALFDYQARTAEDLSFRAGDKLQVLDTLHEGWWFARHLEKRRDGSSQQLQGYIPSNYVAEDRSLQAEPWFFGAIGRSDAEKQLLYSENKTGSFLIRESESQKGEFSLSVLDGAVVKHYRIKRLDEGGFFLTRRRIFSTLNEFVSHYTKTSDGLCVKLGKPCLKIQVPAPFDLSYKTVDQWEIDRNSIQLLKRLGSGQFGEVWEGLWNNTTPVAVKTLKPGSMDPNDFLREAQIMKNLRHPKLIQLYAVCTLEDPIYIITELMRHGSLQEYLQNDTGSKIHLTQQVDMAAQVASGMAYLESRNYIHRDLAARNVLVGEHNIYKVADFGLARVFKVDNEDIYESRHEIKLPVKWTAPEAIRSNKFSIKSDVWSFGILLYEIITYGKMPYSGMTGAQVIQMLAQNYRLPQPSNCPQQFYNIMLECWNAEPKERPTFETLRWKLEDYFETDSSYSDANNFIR
# UniProt P78368, sequence (whole entry, looked up): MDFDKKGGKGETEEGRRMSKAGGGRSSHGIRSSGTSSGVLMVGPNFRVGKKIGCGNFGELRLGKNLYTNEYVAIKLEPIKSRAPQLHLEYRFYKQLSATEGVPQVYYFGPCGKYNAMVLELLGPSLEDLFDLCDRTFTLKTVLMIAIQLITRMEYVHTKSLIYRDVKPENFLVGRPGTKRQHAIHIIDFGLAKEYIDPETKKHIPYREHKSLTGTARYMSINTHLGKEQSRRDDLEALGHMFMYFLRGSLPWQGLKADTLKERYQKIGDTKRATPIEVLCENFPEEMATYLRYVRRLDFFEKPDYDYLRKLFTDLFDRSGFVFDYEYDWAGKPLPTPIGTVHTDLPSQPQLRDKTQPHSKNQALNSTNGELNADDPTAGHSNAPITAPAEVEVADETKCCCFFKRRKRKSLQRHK
# UniProt P10398, sequence (whole entry, looked up): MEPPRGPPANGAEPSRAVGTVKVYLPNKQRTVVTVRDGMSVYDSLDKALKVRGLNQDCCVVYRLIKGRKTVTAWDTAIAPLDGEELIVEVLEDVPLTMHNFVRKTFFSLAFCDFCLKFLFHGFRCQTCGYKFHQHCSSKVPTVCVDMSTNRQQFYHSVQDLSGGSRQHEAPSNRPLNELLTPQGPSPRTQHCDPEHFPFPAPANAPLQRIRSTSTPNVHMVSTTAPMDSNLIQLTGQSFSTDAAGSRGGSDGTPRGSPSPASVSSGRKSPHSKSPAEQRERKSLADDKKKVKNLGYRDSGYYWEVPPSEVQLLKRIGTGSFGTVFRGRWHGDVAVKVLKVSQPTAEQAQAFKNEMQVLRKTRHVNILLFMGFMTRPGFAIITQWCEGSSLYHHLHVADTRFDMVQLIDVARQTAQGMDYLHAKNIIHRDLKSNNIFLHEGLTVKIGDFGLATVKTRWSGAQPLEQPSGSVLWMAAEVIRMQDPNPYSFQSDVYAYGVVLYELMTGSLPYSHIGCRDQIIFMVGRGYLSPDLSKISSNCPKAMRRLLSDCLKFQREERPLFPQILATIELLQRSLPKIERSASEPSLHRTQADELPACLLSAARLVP
# UniProt Q8IYT8, sequence (whole entry, looked up): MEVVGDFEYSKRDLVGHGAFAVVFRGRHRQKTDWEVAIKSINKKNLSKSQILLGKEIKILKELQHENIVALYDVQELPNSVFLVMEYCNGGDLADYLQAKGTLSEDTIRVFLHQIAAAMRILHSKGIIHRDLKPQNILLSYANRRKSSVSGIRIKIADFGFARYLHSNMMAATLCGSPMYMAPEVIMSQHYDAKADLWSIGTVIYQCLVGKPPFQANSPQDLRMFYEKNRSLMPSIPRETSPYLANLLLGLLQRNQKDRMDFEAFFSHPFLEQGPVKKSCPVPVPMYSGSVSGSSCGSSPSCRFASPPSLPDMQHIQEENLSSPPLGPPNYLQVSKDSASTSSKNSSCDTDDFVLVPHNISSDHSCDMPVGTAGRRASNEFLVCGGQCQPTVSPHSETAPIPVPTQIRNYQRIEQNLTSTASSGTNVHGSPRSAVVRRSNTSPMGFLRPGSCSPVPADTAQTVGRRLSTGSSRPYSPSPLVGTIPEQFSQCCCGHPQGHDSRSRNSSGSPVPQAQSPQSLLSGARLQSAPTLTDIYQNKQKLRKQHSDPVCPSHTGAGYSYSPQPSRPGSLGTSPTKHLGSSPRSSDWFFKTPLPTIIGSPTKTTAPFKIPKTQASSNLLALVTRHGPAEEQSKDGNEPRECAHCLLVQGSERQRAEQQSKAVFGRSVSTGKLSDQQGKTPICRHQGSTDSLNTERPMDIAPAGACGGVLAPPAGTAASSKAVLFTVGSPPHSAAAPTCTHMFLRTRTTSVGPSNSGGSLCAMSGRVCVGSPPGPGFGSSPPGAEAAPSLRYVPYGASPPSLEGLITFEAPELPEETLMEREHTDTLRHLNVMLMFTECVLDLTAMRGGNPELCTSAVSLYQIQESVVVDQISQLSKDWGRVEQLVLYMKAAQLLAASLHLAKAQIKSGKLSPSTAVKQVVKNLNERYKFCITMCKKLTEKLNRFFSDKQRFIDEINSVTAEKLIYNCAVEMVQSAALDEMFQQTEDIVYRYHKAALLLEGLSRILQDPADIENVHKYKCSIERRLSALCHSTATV
# UniProt P51812, sequence (whole entry, looked up): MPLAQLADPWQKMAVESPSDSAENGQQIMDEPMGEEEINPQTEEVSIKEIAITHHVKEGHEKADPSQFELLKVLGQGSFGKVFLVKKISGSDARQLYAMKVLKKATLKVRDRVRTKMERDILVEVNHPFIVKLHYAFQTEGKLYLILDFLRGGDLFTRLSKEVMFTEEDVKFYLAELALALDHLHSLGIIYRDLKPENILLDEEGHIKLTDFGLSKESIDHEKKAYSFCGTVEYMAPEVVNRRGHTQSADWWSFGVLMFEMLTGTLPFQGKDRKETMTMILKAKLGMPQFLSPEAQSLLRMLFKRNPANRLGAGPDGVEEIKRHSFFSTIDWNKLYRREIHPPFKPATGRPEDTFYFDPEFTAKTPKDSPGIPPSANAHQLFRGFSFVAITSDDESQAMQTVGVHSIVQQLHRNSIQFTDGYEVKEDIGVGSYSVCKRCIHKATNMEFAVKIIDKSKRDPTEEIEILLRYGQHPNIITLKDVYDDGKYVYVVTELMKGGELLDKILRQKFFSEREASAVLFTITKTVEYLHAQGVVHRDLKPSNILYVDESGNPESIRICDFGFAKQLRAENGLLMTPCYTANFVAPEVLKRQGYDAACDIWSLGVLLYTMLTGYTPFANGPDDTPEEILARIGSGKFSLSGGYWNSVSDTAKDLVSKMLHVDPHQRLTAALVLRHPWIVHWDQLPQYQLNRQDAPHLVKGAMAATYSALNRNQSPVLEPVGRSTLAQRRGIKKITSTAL
# UniProt Q6XUX3, sequence (whole entry, looked up): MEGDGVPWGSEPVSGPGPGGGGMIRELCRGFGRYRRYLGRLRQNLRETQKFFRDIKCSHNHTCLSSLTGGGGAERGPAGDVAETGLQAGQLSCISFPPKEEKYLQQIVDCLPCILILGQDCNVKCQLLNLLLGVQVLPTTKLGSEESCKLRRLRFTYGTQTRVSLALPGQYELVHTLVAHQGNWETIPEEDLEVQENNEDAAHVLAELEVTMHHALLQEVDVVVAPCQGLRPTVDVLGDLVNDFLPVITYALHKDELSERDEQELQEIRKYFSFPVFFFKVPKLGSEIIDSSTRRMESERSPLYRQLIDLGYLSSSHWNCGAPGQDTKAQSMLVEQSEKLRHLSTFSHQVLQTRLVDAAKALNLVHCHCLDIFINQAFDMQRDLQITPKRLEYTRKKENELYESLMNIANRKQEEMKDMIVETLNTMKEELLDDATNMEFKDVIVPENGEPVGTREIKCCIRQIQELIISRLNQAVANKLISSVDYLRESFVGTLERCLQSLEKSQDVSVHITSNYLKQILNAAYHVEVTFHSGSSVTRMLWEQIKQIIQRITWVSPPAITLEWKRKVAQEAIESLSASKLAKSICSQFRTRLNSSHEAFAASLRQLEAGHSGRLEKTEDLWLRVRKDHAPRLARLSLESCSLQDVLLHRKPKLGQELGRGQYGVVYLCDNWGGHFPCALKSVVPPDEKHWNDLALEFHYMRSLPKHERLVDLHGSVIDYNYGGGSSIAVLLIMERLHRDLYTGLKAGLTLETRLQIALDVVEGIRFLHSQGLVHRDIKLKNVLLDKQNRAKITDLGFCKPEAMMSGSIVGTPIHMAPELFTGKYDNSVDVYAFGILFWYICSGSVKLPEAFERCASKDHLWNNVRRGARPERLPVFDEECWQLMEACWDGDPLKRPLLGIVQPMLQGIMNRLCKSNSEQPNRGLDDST

# Set 1 — cell line: HH; concentration: 2 µM; time: 48 h; reference: untreated
Compound,viability
NC1(Cc2ccc(Cl)cc2)CCN(c2ncnc3[nH]ccc23)CC1,54.7%
COc1ccccc1-c1cc(Nc2cccc(CS(N)(=O)=O)c2)ncn1,84.2%
CCN(C)S(=O)(=O)Nc1ccc(F)c(C(=O)c2c[nH]c3ncc(-c4cnc(C5CC5)nc4)cc23)c1F,78.9%
Cc1cc2c(F)c(Oc3ncnn4cc(OC[C@@H](C)OC(=O)[C@H](C)N)c(C)c34)ccc2[nH]1,94.2%
CC1(COc2ccc3c(c2)ncn3-c2ccc3cccc(N4CCC(N)CC4)c3n2)COC1,81.3%
CC(C)(C)c1ccc(S(=O)(=O)/C=C/C#N)cc1,71.3%

# Set 2 — Structure (SMILES): O=C1C(Cl)=C(N2C(=O)CCC2=O)C(=O)c2ccccc21; effect on: enzyme activity; mode: inhibitor; concentration: 0.5 µM; reference: control
target,remaining activity [%]
"MAP2K2 (Homo sapiens, UniProt P36507)",106
"MERTK (Homo sapiens, UniProt Q12866)",90.3
"GRK7 (Homo sapiens, UniProt Q8WTQ7)",109
"MAPKAPK2 (Homo sapiens, UniProt P49137)",105
"ULK3 (Homo sapiens, UniProt Q6PHR2)",102
"NEK6 (Homo sapiens, UniProt Q9HC98)",104
"GSK3B (Homo sapiens, UniProt P49841)",100
"ARAF (Homo sapiens, UniProt P10398)",105
"ULK2 (Homo sapiens, UniProt Q8IYT8)",108
"TBK1 (Homo sapiens, UniProt Q9UHD2)",97.9
"FRK (Homo sapiens, UniProt P42685)",103
"CSNK1G2 (Homo sapiens, UniProt P78368)",99.3
"MST1R (Homo sapiens, UniProt Q04912)",94.5

# Set 3 — concentration: 1 µM
# Compound: CN(c1ccnc(CNc2nc(Nc3ccc4c(c3)CC(=O)N4)ncc2C(F)(F)F)n1)S(C)(=O)=O
target,assay,remaining binding
"Tyrosine-protein kinase JAK3, JH1 (JAK3, Homo sapiens, UniProt P52333)","cell-free assay, competition with immobilised ligand",1.9%
"PAK1 (Homo sapiens, UniProt Q13153)","cell-free assay, competition with immobilised ligand",73%
"CILK1 (Homo sapiens, UniProt Q9UPZ9)","cell-free assay, competition with immobilised ligand",100%
"MAPKAPK5 (Homo sapiens, UniProt Q8IW41)","cell-free assay, competition with immobilised ligand",94%
"FLT1 (Homo sapiens, UniProt P17948)","cell-free assay, competition with immobilised ligand",69%
"EPHA1 (Homo sapiens, UniProt P21709)","cell-free assay, competition with immobilised ligand",86%
"CAMKK2 (Homo sapiens, UniProt Q96RR4)","cell-free assay, competition with immobilised ligand",69%
"EGFR (Homo sapiens, UniProt P00533, L858R/T790M)","cell-free assay, competition with immobilised ligand",56%
"VRK2 (Homo sapiens, UniProt Q86Y07)","cell-free assay, competition with immobilised ligand",78%
"DCLK2 (Homo sapiens, UniProt Q8N568)","cell-free assay, competition with immobilised ligand",90%
"EIF2AK2 (Homo sapiens, UniProt P19525)","cell-free assay, competition with immobilised ligand",82%
"EGFR (Homo sapiens, UniProt P00533, del747-752/P753S)","cell-free assay, competition with immobilised ligand",57%
"NEK6 (Homo sapiens, UniProt Q9HC98)","cell-free assay, competition with immobilised ligand",84%
"CDK11A (Homo sapiens, UniProt Q9UQ88)","binding, competition with immobilised ligand",94%
"DSTYK (Homo sapiens, UniProt Q6XUX3)","cell-free assay, competition with immobilised ligand",53%
"SIK1 (Homo sapiens, UniProt P57059)",competition binding,76%
"Ribosomal protein S6 kinase alpha-3, C-terminal kinase domain (RPS6KA3, Homo sapiens, UniProt P51812)","cell-free assay, competition with immobilised ligand",85%
"MAPKAPK2 (Homo sapiens, UniProt P49137)","cell-free assay, competition with immobilised ligand",100%
"INSRR (Homo sapiens, UniProt P14616)","cell-free assay, competition with immobilised ligand",100%
"CAMK4 (Homo sapiens, UniProt Q16566)","cell-free assay, competition with immobilised ligand",100%
"ALK (Homo sapiens, UniProt Q9UM73, C1156Y)","cell-free assay, competition with immobilised ligand",77%
"SGK2 (Homo sapiens, UniProt Q9HBY8)","cell-free assay, competition with immobilised ligand",75%

# Set 4 — organism: Sarcocystis neurona; effect on: parasite growth; concentration: 10 µM; time: 96 h; notes: secondary screen
Compound,inhibition
C[C@@H]1O[C@@H](OC[C@H]2O[C@@H](Oc3c(-c4ccc(O)c(O)c4)oc4cc(O)cc(O)c4c3=O)[C@H](O)[C@@H](O)[C@@H]2O)[C@H](O)[C@H](O)[C@H]1O,-18.1%
CS(=O)(=O)OCCCCOS(C)(=O)=O,-4.7%
NC12CC3CC(CC(C3)C1)C2,-20.7%
CC(=O)S[C@@H]1CC2=CC(=O)CC[C@]2(C)[C@H]2CC[C@@]3(C)[C@@H](CC[C@@]34CCC(=O)O4)[C@H]12,-11.8%
CN(C)[C@@H]1C(O)=C(C(=O)NCN2CCCC2)C(=O)[C@@]2(O)C(O)=C3C(=O)c4c(O)cccc4[C@@](C)(O)[C@H]3C[C@@H]12,-17.3%
CC(=O)Nc1nnc(S(N)(=O)=O)s1,-15.1%

# Excerpt of the above (set 2):
target,remaining activity [%]
"MAPKAPK2 (Homo sapiens, UniProt P49137)",105
"MAP2K2 (Homo sapiens, UniProt P36507)",106
"ULK3 (Homo sapiens, UniProt Q6PHR2)",102
"MST1R (Homo sapiens, UniProt Q04912)",94.5
"NEK6 (Homo sapiens, UniProt Q9HC98)",104
"CSNK1G2 (Homo sapiens, UniProt P78368)",99.3
"ARAF (Homo sapiens, UniProt P10398)",105
"MERTK (Homo sapiens, UniProt Q12866)",90.3
